# Measurements from different studies.
# Each numbered part is a random draw from the data of one study; scales do not carry over between parts.

# Sample 1
# Target: Interferon regulatory factor 5, full length, phosphomimetic (IRF5, Homo sapiens, UniProt Q13568-2, residues 1-514, S451D/S453D/S456D/S462D)
# Method: protein-binding microarray
# Molecule type: double-stranded DNA, one strand shown
# Matrix: in vitro
# Tested at: 940 nM top
# Setting: 60-bp whole probe
# Added: salmon DNA 0.4 mg/ml
# Reference: random background probes
# Direction: higher = stronger binding
# All sequences stand within: GCCTAGCAC … GTCTTGATTCGCTTGACGCTGCTG
Sequence,fitted relative affinity
TGAGATTTCAGACTGGATTAGTGCTAG,-0.337 z-score
GACGGACTGGGGTTTCGAGACGTGCTA,2.12 z-score
GACGGTTTACTTATCCTGACGTGCTAG,-0.0317 z-score
TACTATATGCATGTAAATAAGTGCTAG,0.192 z-score
TCATTCTCCTATTTAAGACTGTGCTAG,1.53 z-score
GACGGTTACGGGTATCGGGACGTGCTA,0.88 z-score
TTAGGTATCCTGCTGCTTTAGTGCTAG,0.0805 z-score
CGCTTTCTTTAACTCATTTTGTGCTAG,1.97 z-score
GTGTTACTAAAATTTCATGAAGTGCTA,-0.162 z-score
TTAGATCTCAGTTTCGAGTAGTGCTAG,4.54 z-score
TTAGGTCTCTGTTTCGGTTAGTGCTAG,4.95 z-score
GACGAACTGGGGTTTCGAAACGTGCTA,2.34 z-score
TTAGGTTTCGGTTTCAGTTAGTGCTAG,15.3 z-score
GTCAGTTTTGAGCTCTGTCTGTGCTAG,0.267 z-score
TTAGACTTCGGGTTTCGATTAGTGCTA,5.14 z-score
TTAGGTTTCCTTCTCCTTTCGTGCTAG,2.3 z-score
TTAGGACTGATTTTCCTTTAGTGCTAG,-0.28 z-score
TCAGGAGTGTTTCTCAGACTGTGCTAG,-0.199 z-score
GACGGTATCTGGTATCGGGACGTGCTA,3 z-score

# Sample 2
# Target: Ras GTPase-activating protein-binding protein 1, C-terminal RGG region (G3BP1, Homo sapiens, UniProt Q13283)
# Chain of UniProt Q13283 (whole entry, looked up): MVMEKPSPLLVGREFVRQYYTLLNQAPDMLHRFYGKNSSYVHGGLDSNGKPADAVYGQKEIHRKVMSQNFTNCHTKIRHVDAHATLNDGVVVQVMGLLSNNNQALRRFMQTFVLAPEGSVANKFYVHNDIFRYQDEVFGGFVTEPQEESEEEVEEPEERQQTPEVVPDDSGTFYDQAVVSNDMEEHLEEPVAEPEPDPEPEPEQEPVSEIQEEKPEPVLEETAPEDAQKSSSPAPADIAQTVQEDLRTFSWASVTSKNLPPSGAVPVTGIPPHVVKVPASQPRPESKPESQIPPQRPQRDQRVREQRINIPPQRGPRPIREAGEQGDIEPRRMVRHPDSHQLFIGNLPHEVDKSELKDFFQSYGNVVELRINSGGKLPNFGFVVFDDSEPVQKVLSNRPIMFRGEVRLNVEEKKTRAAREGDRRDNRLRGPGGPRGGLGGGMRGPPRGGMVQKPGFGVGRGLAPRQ
# Method: RNA Bind-n-Seq
# Molecule type: RNA
# Matrix: in vitro
# Tested at: 1 µM
# Setting: whole 134-nt RNA, ends assumed
# Added: 150 mM KCl
# Reference: input library
# Direction: higher = stronger binding
Sequence,log2 enrichment
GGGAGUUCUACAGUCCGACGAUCGUCCUGUGCUACACAUCGUAUGUACCGAAUCGGGGAAAAAAAGGGGUGGGGUUUGGGGAAAGUAUUAUGUUACGCCGUUCGGAUCUGCACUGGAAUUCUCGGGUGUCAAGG,1.66
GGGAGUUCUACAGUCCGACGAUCCUCAAGUCCUGUGCUACACAUCGUAUGUACCGAAUCGGGGCGGGGCGGGGCGGAAAGUAUUAUGUUACGCCGUUCGGAUCUGCACUUCCAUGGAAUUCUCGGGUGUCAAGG,1.03
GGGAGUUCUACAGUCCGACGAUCGUCCUGUGCUACACAUCGUAUGUACCGAAUCGGGGAAAAAGGGGUGGGGAAAAAGGGGAAAGUAUUAUGUUACGCCGUUCGGAUCUGCACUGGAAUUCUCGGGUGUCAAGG,1.12
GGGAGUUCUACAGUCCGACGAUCUCAAGUCCUGUGCUACACAUCGUAUGUACCGAAUCGGGAAGGGGAAGGGGAAGGGAAAGUAUUAUGUUACGCCGUUCGGAUCUGCACUUCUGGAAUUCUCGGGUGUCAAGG,2.45
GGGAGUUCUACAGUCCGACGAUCUGGACAGGUUGCUGGACCCCGCCAACAGAGCCCACCUGGGCCUGGAGGAGCAGCUGAGAGAGCUGCUGGACAUGCUCGACCUCACCUGCGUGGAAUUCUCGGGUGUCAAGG,-1
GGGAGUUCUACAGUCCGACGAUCUGGCCCUGGUGGCAUGCGGGGAGGAAGAGGUGGCCUCAUGGAUCGUGGUGGUCCCGGGGGAAUGUUCAGAGGUGGCCGUGGUGGAGACAGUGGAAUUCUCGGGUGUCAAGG,2.21
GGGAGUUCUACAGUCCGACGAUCUGGCCCUGGUGGCAUGCGGGGAGGAAGAGGUGGCCUCAUGGAUCGUGGUGGUCCCGGUGGAAUGUUCAGAGGUGGCCGUGGUGGAGAUAGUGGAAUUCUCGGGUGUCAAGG,3.58
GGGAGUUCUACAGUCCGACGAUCUGGAUCAAGAGGAAGUAAAAAGAAUUACCAGUCACAGGCUGACAUUCCCAUUCGGUCUCCCUUUGGUAUUGUGAAAGCAUCCUGGCUACCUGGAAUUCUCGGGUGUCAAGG,-0.817
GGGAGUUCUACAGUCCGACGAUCGUCCUGUGCUACACAUCGUAUGUACCGAAUCGGUUUUUUUGGAAAAAAAGGUUUUUGGAAAGUAUUAUGUUACGCCGUUCGGAUCUGCACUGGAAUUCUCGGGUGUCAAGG,-1.95

# Sample 3
# Target: Histone acetyltransferase KAT6A, both winged helices, GST fusion (KAT6A, Homo sapiens, UniProt Q92794, residues 1-181)
# Method: protein binding microarray
# Molecule type: double-stranded DNA, one strand shown
# Matrix: in vitro
# Tested at: not given
# Setting: 8-mer, flanks averaged, mean of 2 arrays, mostly near background
# Reference: not given
# Direction: higher = stronger binding
# Target sequence (chain): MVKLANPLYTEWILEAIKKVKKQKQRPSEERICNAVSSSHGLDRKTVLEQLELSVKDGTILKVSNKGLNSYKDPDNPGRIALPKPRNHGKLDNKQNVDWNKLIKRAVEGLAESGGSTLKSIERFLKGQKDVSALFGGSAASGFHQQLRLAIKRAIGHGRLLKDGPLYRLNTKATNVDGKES
Sequence,E-score
ACTTCGGG,-0.00399
CACGGGTC,0.228
CACCCTAC,-0.188
ATAGGCAG,-0.185
ACAGTGTA,-0.137
GCCCCAGA,-0.0706
GTGAAAAA,0.00101
CATACAAG,-0.0501
AGTCTGGA,-0.103
ACCACGGT,-0.0335
AGCCTCGC,0.141
AGGAAGGA,-0.277
ATATAGAT,-0.0457
CTCTACTC,-0.146
CTAAATAA,-0.0189
TATTACGA,-0.00295

# Further values, each from its own experiment
# Molecule type: peptide
# Direction: direction not given
Sequence,target or system,assay,system,setting,enrichment score
PKNAKRNLSSEFAN,Saccharomyces cerevisiae,"mating pheromone growth arrest, pooled competitive growth deep sequencing",no Cln2 overexpression,peptide tiling library,-0.423
GFGFLLFICKLTF,Saccharomyces cerevisiae,"peptide binding, yeast competitive growth sequencing",cyclin E2-Cln2 fusion,library 2,0.116
GAPLKKLFTSTGL,Cln2 (Saccharomyces cerevisiae),"peptide binding, competitive growth sequencing","Saccharomyces cerevisiae, unfused Cln2 strain",mutational scanning library 1,-1.33
